Published values of several laboratories.
Parts stem from different laboratories: compare values within a part only. Changes are numbered by the printed parent chain.
UniProt P25021, sequence (whole entry, looked up): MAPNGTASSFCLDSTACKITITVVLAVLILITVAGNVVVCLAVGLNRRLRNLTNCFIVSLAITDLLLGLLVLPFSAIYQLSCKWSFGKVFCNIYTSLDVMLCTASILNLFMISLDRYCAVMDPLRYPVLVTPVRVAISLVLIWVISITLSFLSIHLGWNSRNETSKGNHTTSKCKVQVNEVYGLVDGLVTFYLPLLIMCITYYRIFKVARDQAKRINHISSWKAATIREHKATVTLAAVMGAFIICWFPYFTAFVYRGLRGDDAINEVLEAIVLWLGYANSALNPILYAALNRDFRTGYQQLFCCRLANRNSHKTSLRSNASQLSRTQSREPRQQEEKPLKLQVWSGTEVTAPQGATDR

Study 1 — effect on: binding; method: phage display NGS; molecule type: peptide; baseline: input library
Target: UDP-N-acetylglucosamine--peptide N-acetylglucosaminyltransferase 110 kDa subunit (OGT, Homo sapiens, UniProt O15294)
UniProt O15294, sequence (whole entry, looked up): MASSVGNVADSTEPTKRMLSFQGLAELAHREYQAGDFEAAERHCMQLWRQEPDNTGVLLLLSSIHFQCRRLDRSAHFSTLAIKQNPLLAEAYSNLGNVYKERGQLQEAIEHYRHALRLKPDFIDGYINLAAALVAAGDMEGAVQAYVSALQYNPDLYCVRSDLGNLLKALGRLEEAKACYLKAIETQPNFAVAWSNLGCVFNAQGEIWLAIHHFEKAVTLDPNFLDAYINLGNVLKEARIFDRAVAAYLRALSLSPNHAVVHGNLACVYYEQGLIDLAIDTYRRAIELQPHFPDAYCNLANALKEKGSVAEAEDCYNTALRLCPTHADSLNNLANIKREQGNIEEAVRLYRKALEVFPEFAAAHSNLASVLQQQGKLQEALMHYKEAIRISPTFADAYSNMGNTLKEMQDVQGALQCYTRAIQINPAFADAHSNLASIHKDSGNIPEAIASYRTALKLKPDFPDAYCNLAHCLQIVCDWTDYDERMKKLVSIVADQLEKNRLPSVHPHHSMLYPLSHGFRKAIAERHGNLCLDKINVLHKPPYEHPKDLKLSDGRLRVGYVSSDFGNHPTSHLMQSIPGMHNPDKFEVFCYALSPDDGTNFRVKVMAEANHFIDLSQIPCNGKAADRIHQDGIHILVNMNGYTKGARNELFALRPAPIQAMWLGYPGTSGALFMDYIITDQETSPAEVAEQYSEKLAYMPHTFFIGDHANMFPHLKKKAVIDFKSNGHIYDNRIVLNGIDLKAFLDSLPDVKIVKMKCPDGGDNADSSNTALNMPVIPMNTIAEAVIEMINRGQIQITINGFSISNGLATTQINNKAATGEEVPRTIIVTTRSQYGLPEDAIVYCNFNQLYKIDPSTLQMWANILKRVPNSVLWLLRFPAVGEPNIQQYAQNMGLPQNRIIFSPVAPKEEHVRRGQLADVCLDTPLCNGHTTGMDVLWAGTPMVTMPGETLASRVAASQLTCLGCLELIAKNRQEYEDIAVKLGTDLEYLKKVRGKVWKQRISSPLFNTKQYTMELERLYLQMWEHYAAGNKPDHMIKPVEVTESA
Under “minimum log2 enrichment ratio”, `IQYPQVYPPKYQIMV` is recorded as 5.81.
For `RHTQIKHHVPHQLF`, “minimum log2 enrichment ratio” read 2.04.
For `HRASMHHVFSPHLDH`, “minimum log2 enrichment ratio” read 2.67.
Under “minimum log2 enrichment ratio”, `QHAHTHKHHHALTDI` is recorded as 2.33.
`QEARSRFTPMYQITI` — result for “minimum log2 enrichment ratio”: 4.49.
`WVNVPHYQVFLHEHH`: “minimum log2 enrichment ratio” 2.61.
Under “minimum log2 enrichment ratio”, `HTQTHWIPHEIRHV` is recorded as 3.29.
For `HLHRDIHNKYNSIVN`, “minimum log2 enrichment ratio” read 1.38.

Study 2 — target: CCND2, cyclin fold, Cln2 fusion (human); method: yeast growth competition, sequencing; matrix: yeast; notes: weak parent motif; baseline: not given; direction: higher = stronger binding
Parent: viral docking peptide; PTARRRLLHDLDT; partner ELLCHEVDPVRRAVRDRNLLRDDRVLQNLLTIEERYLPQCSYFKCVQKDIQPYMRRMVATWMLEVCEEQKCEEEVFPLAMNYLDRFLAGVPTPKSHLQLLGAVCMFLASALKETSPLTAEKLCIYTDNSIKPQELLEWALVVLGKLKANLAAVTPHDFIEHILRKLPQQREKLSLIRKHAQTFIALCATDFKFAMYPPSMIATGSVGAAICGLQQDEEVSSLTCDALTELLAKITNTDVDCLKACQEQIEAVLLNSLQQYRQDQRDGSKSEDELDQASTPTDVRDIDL
For `PTAARRLLHDLDT [R4A]`, “normalised enrichment score” read 0.0134.
`PTARARLLHDLDT [R5A]` — result for “normalised enrichment score”: -0.071.
For `PTARRRLFHDLDT [L8F]`, “normalised enrichment score” read 0.3.
Under “normalised enrichment score”, `PTARRRLLHDLAT [D12A]` is recorded as -0.345.
`PTARKRLLFDLDT [R5K H9F]` — result for “normalised enrichment score”: 0.727.

Study 3 — target: tungstate, free oxyanion; method: microfluidic competitive inhibition; matrix: in vitro, cell-free expressed; tested at: not given; direction: lower = stronger binding
Notes: derived from inhibition constants, unchanged parent 2230 nM
Parent: PafA, mature enzyme, eGFP fusion (Elizabethkingia meningoseptica, UniProt Q9KJX5); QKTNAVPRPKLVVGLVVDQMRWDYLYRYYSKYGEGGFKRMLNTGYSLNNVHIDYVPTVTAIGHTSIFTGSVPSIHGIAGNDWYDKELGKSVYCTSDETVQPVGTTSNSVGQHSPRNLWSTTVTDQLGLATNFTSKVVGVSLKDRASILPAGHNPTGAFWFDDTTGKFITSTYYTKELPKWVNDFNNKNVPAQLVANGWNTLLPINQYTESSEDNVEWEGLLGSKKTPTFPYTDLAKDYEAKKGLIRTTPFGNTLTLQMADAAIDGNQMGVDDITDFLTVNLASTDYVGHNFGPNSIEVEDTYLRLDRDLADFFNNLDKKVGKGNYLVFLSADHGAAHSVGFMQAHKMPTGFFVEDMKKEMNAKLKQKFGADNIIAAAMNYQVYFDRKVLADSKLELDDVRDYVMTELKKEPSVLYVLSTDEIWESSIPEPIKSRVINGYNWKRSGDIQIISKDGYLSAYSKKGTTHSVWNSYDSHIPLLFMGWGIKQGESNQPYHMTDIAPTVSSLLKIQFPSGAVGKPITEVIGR
`L305V` — result for “oxyanion analog dissociation constant”: 2820 nM.
For `R386V`, “oxyanion analog dissociation constant” read 2250 nM.
For `W483V`, “oxyanion analog dissociation constant” read 2160 nM.
For `F313G`, “oxyanion analog dissociation constant” read 1410 nM.
Under “oxyanion analog dissociation constant”, `R307V` is recorded as 1820 nM.
For `R115G`, “oxyanion analog dissociation constant” read 2200 nM.
Under “oxyanion analog dissociation constant”, `Y455V` is recorded as 2390 nM.
Under “oxyanion analog dissociation constant”, `Y83G` is recorded as 721 nM.

Further values, each from its own experiment
With Cn1cncc1[C@](O)(COc1ccc(C#N)cc1-c1ccc(OC(F)(F)F)cc1)c1ccc(C#N)cc1 the inhibition was 14.5% (Histamine H2 receptor (HRH2, Homo sapiens, UniProt P25021); binding, radioligand binding; 10 µM).

For quick reference, copied from above (study 1):
For `RHTQIKHHVPHQLF`, “minimum log2 enrichment ratio” read 2.04.
